Measured values pooled from the literature.
Every numbered part comes from another study and shows a few of its results, in no order.

Study 1
Target: Interferon regulatory factor 3, full length, phosphomimetic (IRF3, Homo sapiens, UniProt Q14653, residues 1-427, S386D/S396D/S398D/S402D/T404D/S405D)
Method: protein-binding microarray
Form: double-stranded DNA, one strand shown
Medium: in vitro
Tested at: 2540 nM top
Notes: 60-bp whole probe
Added: salmon DNA 0.4 mg/ml
Relative to: random background probes
Direction: higher = stronger binding
Measurement: fitted relative affinity
All sequences stand within: GCCTAGCAC … GTCTTGATTCGCTTGACGCTGCTG
Residues (chain): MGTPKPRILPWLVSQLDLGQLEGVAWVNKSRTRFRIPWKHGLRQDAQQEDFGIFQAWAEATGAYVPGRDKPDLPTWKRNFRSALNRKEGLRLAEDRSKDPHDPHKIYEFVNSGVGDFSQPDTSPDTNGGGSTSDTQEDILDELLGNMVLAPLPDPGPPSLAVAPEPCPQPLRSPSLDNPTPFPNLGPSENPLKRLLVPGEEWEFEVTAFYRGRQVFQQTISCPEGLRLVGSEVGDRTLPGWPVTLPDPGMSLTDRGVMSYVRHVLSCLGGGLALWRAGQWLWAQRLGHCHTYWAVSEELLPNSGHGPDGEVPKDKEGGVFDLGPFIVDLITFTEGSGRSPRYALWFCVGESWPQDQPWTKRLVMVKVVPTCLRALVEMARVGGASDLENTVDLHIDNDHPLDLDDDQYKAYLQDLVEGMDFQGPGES
CCTAGTTGTACTTTCTATCTGTGCTAG: 2.47 z-score
TCACTGCTACCCTTTGAAACTGTGCTA: -0.209 z-score
TTAGGTTTCGGCTCCGGTTAGTGCTAG: 2.97 z-score
TCAAAATGATTGGTTGAACTGTGCTAG: -0.316 z-score
CACGGTATCGACACTGGGGACGTGCTA: 0.208 z-score
GACGGTATCGGTCTTGGGACGTGCTAG: 4.77 z-score
GACGAACTGAGTCTCGATACGTGCTAG: 0.028 z-score
GACGGTTTCAGGTATCGGGACGTGCTA: 3.14 z-score
TCTCATTTCCAATTACCTTTGTGCTAG: 3.82 z-score
GACGGTCGCCTTATCCTGACGTGCTAG: 0.729 z-score
TTAGATATCGGGTTTCCATTAGTGCTA: 2.14 z-score
GACGGTATCGAATTTCGGGACGTGCTA: 1.69 z-score
GACGGTATGCTTTTCCTGACGTGCTAG: 0.542 z-score
GGCCCTGTCCTTTTCTTTACGTGCTAG: 1.8 z-score
TTAGAACTGTGGTATCGATTAGTGCTA: 0.018 z-score
GACGGACTGCTTTTTCTGACGTGCTAG: -0.0608 z-score
TTAGATTTCAGACTGGCTTAGTGCTAG: 0.414 z-score
GAAGGTTTCGGGACTGGGGACGTGCTA: 4.02 z-score

Study 2
Target: Histone acetyltransferase KAT6A, winged helix 2, GST fusion (KAT6A, Homo sapiens, UniProt Q92794, residues 85-181)
Method: protein binding microarray
Form: double-stranded DNA, one strand shown
Medium: in vitro
Tested at: not given
Notes: 8-mer, flanks averaged, mean of 2 arrays, mostly near background
Relative to: not given
Direction: higher = stronger binding
Measurement: E-score
Target sequence (chain): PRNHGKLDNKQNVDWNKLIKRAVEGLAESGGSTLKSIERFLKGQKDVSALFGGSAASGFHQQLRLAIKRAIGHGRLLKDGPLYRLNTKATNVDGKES
ACGAAGAT: 0.0827
CCTTAGTC: -0.139
CTCGTGTC: 0.0934
CCTGCACC: -0.0194
CGTTCGAC: -0.0336
CCTCGCGC: 0.0575
AGCGGTTG: -0.0409
AGATATAA: 0.0478
CGCCTTGC: 0.0269
AGAGGGGA: -0.0141
ACAGTGGA: -0.124
CGGTTACG: -0.0584
AATTAGCA: 0.186
CCCGAACA: -0.0622
TGACAGAA: -0.00958
GTCGTAAA: -0.156
CCGCTAAA: -0.0647
AACAAACT: 0.245

Study 3
Target: Phosphate system positive regulatory protein PHO4, full length, GST-tagged (PHO4, Saccharomyces cerevisiae, UniProt P07270, residues 1-312)
Method: competition protein-binding microarray
Form: double-stranded DNA, one strand shown
Medium: in vitro
Tested at: 2 µM
Notes: whole 60-bp probe, lowest competitor level
Added: Cbf1 competitor, 0.05 µM
Direction: higher = stronger binding
Measurement: fluorescence intensity
Construct (chain): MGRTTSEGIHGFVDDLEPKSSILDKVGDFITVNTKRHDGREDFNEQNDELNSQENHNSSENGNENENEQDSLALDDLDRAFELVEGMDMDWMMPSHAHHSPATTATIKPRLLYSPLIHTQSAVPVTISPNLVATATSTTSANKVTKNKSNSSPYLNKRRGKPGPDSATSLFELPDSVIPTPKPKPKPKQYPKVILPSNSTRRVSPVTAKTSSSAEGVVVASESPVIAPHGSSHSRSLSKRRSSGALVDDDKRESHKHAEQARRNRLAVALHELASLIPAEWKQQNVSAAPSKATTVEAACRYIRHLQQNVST
AAGTTTCGGAATACACTCGTGCTTTCAACCTAAGACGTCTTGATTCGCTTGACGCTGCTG: 11500 a.u.
CAGTCTACCAAGGTGAACGTGTCCACTGTAAAGAAAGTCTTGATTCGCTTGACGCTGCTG: 9360 a.u.
CCCTGCCGTCCTCAACACGTTGCACCATTTGATGTTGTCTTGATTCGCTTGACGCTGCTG: 12100 a.u.
TACGTTGGGCGACCAAACGTGGCTGGTTGCCTGTAAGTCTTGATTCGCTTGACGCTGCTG: 10100 a.u.
TGCGCAACAACTTCCCACGTGTTTTTATGTCTAGAAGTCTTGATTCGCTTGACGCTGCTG: 18100 a.u.
TTTTACGTTTGAGGCCTCGTGGCCGAAATGGTACGCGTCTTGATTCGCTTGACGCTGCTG: 10800 a.u.
CTTTCCCGATCTTGCTACGTGGGTGTAGCACATTTGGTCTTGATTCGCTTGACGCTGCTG: 7240 a.u.
CTAACGAAGGTTTGGTAGGTGGGTGACAAGCCAAGTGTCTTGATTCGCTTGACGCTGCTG: 3830 a.u.
CGGGGTTAAGTTTGACCGGTGGGTGGCTTGCAGCAGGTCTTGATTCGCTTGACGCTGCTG: 4630 a.u.
GCAGCTCTTTTATTTCACGTGTTCCGGTTTCCCTCTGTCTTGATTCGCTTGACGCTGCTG: 14000 a.u.
CTTTCCCGATCTTGCTGGGTGGGTGTAGCACATTTGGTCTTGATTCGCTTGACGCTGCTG: 4640 a.u.
CGGGGTTAAGTTTGAGGCGTGGGTGGCTTGCAGCAGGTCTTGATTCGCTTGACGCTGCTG: 7800 a.u.
CCTGGTAGGTTTGATCTCTTGAGAGTTTGAGCTTTCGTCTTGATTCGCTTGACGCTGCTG: 2400 a.u.
GATTCTTCAGTTTAGCACGTGCCGATTTGGCCTCTTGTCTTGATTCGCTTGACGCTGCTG: 17200 a.u.
GCAGATAGACGCTCGCCCGTGAGCCACTCAGGACGCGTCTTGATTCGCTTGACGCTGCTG: 3460 a.u.
GCTGAAAAGCGCGTTCTCGTGCGATGCTTTCAGTGTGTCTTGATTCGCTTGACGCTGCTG: 8270 a.u.
TCAACTGGTCTAGCCCATGTGTCTTTAGTTTCCAAGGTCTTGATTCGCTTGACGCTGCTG: 9410 a.u.
TAAACAAGTCTCTTACACGTGAAGCACCTACCCCAAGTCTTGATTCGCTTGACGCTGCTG: 11800 a.u.
CTAACGAAGGTTTGACCAGTGGGTGACAAGCCAAGTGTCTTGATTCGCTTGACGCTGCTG: 3800 a.u.
GTCGCGTAATTTTCTTGAAACCATCCATTCACCGATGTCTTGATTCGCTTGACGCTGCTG: 3400 a.u.
CTTTCCCGATCTTGTCACTCCACTTTAGCACATTTGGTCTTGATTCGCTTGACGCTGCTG: 4090 a.u.

Study 4
Target: RNA binding protein fox-1 homolog 2, RRM domain, GST-SBP tag (RBFOX2, Homo sapiens, UniProt O43251-10, residues 100-194)
Method: RNA Bind-n-Seq
Form: RNA
Medium: in vitro
Tested at: 365 nM
Notes: natural RNA segment, single round, ends assumed
Relative to: no-protein control
Direction: higher = stronger binding
Measurement: RBNS enrichment (R)
Construct (chain): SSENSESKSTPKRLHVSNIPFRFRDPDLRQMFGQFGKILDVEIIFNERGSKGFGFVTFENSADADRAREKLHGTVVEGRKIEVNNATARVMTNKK
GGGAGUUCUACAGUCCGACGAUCGCCCUUUCCCACAUGUCUAGGCUCCAAUGUCUCCUGUAGGUCCACCUAACUGUGUGUUUUCAGGGACAAUGCCAUCCAUGUUUGUGCUGUAGACUUGCUGCUGCUGAAUCUGGAAUUCUCGGGUGCCAA: 0.548
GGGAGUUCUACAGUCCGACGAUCCACCUGUAGCUCUUGUUGACCUGCCUGUUCACCUCAUGAGUGAAGCGUCUGCCUGGCAGUGGGCCAUGAACUGAGGGGUCUCUGUGUAGAGUAGAAGCUUCCUGUGCCUCUGGAAUUCUCGGGUGCCAA: 1.38
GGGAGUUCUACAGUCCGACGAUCCUUUCCAGUCCACGUGUGUAUAUAAUGAUAUCUAUAUUUUUGCCCAGGUCUGGGUAUUGCUCCUGCCCAGACCCUGACAUCCCUUUCCACUGUGUGUGUGACCAUGCUGGUGGAAUUCUCGGGUGCCAA: 1.67
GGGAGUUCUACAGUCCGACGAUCCCUGUUGUGUUCCAUGUGCUUUCACCUCUGCCUCAUCUUUCCUCCCGUCCCUGCCCCGCCACCUCCCCAAAGAAUUGAAACGUCAGCUCAGGAUAUGGGGCCAAUCUCUGUGGAAUUCUCGGGUGCCAA: 0.316
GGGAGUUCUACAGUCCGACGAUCUAGUAGGAAUGUUUUAACAGUGUCAUAUGAAAAAGAACAAAAUAAAUAUUUUGAUUUUGUGAUUCUAUGCAAGUCUUUCUGCCCAGAGUGAUAAUGCAAUAAGCUAGUCUUGGAAUUCUCGGGUGCCAA: 0.51
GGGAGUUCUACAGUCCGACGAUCUAAAUCUAAAAUGAAUGACUUUCAAAAAUGGGUUGGUUACCAUGGCAACCUCCAGGAAGAGAUACUCGUUACCCUUCAUUAUUUUCUAGCACUUUUGAACAGUCCCACAGUGGAAUUCUCGGGUGCCAA: 0.246
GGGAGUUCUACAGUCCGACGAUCAAAUUAGGGAAGUGGAGGAAAUUAUUUGGAAUGUGAUCUAAGUUUUUGUUUUUUUUUAAUGUGUCAACUUGGGCUCAGGCUGUAGUUGUGUUGCGUGCCUGCUUAGCAUAUGGAAUUCUCGGGUGCCAA: 3.79
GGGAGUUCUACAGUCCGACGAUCAAUUGUACCACCACUUGGUUUGGACUACAAAUUAAACAUUGGCCCUCGCGGAGCUUGAGUUCUUCAUGGUAGAAAACAGUUGCAUUUCCGUAAAGGGUGGAGGGCUUGAGUGGAAUUCUCGGGUGCCAA: 0.532
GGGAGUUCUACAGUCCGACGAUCCCUUCCCCAUCUCUCCUCACCAUUCUGCCUACAAGGCUUCUAGCAGCACGGGGGCCCGGAGGGAGAGCCCCUUCAGGGUUCAGAGUGAAGUACUACCUUGCCAGGGACUCUGGAAUUCUCGGGUGCCAA: 0.662

A few entries again (study 3):
TAAACAAGTCTCTTACACGTGAAGCACCTACCCCAAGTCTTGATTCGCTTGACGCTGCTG: 11800 a.u.
AAGTTTCGGAATACACTCGTGCTTTCAACCTAAGACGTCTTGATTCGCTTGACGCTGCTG: 11500 a.u.
TACGTTGGGCGACCAAACGTGGCTGGTTGCCTGTAAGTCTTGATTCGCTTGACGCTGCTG: 10100 a.u.
GCAGATAGACGCTCGCCCGTGAGCCACTCAGGACGCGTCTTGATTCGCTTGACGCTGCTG: 3460 a.u.
CCCTGCCGTCCTCAACACGTTGCACCATTTGATGTTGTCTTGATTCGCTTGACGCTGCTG: 12100 a.u.
GTCGCGTAATTTTCTTGAAACCATCCATTCACCGATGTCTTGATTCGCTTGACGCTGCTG: 3400 a.u.
CGGGGTTAAGTTTGAGGCGTGGGTGGCTTGCAGCAGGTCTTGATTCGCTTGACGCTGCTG: 7800 a.u.
CGGGGTTAAGTTTGACCGGTGGGTGGCTTGCAGCAGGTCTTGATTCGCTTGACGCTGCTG: 4630 a.u.
CAGTCTACCAAGGTGAACGTGTCCACTGTAAAGAAAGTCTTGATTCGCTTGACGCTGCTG: 9360 a.u.
